Measured values pooled from the literature.
Numbered parts are unrelated; each lists some results of a single study.

Series 1
Molecule: TSSAQRRLEIPSGGAD
Technique: competitive growth deep sequencing
Form: peptide
Tested at: concentration not given
Direction: direction not given
target or system | effect on | action | strain | setting | growth enrichment score
Saccharomyces cerevisiae | binding | – | cyclin E1-Cln2 fusion strain | tiling library, Cln2 subtracted | 0.0797
yeast with cyclin B3-Cln2 chimera | cell growth | binder | – | peptide tiling library | 0.648
yeast with cyclin D2-Cln2 chimera | cell growth | binder | – | peptide tiling library | -0.766
yeast with cyclin F-Cln2 chimera | cell growth | binder | – | peptide tiling library | 1.91
Saccharomyces cerevisiae | binding | – | cyclin D2-Cln2 fusion strain | peptide tiling library | -1.14
yeast with cyclin A1-Cln2 chimera | cell growth | binder | – | peptide tiling library | 0.195
yeast with cyclin E2-Cln2 chimera | cell growth | binder | – | peptide tiling library | -0.139
yeast with cyclin D1-Cln2 chimera | cell growth | binder | – | peptide tiling library | -0.431
Saccharomyces cerevisiae | binding | – | cyclin D3-Cln2 fusion strain | peptide tiling library | 0.388
Saccharomyces cerevisiae | binding | – | cyclin D3-Cln2 fusion strain | tiling library, Cln2 subtracted | -0.199
Saccharomyces cerevisiae | binding | – | cyclin E1-Cln2 fusion strain | peptide tiling library | -0.315

Series 2
Target: Sal-like protein 4, full length isoform A (SALL4, Homo sapiens, UniProt Q9UJQ4, residues 1-1053)
UniProt Q9UJQ4, sequence (whole entry, looked up): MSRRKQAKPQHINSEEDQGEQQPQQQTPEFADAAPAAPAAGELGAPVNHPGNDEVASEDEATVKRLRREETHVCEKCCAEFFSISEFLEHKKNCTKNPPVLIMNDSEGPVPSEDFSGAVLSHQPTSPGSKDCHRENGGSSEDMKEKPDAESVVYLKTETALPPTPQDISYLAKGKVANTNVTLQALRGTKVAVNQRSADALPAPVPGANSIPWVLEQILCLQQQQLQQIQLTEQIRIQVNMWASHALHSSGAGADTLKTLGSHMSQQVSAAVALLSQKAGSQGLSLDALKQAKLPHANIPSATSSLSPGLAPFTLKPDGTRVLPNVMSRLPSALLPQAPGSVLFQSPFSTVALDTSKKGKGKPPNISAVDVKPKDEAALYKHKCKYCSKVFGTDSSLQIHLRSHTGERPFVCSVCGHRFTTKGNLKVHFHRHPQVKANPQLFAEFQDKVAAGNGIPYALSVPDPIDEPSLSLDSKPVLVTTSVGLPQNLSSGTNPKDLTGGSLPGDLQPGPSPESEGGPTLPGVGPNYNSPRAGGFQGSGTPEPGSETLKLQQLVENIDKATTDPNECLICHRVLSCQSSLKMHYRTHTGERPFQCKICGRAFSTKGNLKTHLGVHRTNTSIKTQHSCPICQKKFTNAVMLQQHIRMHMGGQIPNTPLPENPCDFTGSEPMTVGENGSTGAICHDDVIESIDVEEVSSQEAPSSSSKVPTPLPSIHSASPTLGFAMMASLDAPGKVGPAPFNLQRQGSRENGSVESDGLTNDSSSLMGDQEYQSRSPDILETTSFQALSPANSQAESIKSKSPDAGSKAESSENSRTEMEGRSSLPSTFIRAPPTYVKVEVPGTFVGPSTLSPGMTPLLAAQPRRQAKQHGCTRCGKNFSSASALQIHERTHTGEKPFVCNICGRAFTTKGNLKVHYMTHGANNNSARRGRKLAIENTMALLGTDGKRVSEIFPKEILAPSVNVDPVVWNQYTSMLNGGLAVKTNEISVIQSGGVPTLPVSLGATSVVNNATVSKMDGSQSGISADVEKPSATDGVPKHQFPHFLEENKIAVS
Technique: universal PBM
Form: double-stranded DNA, one strand shown
Medium: in vitro
Tested at: 600 nM
Setting: 8-mer, flanks averaged, mean of replicates
Direction: higher = stronger binding
Strand | E-score
CCAGAGGG | -0.343
GTGGCCCA | -0.326
ACACGCGA | -0.0257
CGATAAGA | 0.124
GCCAGAGA | -0.168
ACCGCGGA | -0.272
AACGGTCC | -0.218
ACGAACAT | 0.173
CCACAACA | 0.00113
ATAAGCCA | 0.178
ATTAACGA | 0.282
CCTTGGTC | -0.247
CTGTAGGC | -0.0611
AGTGGACC | -0.268
TTTAAAAA | 0.325
CGAATCAG | -0.0772
ATCACGGC | 0.0317

Series 3
Target: Ras GTPase-activating protein-binding protein 1, RRM domain (G3BP1, Homo sapiens, UniProt Q13283)
UniProt Q13283, sequence (whole entry, looked up): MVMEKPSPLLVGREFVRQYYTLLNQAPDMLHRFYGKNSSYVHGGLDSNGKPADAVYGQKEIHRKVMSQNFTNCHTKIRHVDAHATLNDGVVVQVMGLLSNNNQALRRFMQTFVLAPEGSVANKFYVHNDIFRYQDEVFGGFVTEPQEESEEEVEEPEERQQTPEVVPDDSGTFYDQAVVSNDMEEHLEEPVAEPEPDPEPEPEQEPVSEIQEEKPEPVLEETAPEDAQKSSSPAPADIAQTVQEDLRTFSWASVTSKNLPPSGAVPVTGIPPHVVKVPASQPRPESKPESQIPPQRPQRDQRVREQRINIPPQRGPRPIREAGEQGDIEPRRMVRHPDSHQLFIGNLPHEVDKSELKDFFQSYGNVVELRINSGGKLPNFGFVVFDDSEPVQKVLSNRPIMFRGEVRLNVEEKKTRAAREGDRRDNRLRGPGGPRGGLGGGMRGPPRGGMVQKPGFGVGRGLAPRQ
Technique: RNA Bind-n-Seq
Form: RNA
Medium: in vitro
Tested at: 1 µM
Setting: whole 134-nt RNA, ends assumed
Together with: 150 mM KCl
Relative to: input library
Direction: higher = stronger binding
Strand | log2 enrichment
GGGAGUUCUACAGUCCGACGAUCUUUCGGCUACCCCCAGUUCUUCUUUGCCAAAGCGUACACGUGAAGAGGAAGAGGAUAGCACCAUAGAAGCAUCAGACCAAGUCUCUGAUGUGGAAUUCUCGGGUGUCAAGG | -0.176
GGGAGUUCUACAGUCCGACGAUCUGGCCCUGGUGGCAUGCGGGGAGGAAAAGGUGGCCUCAUGGAUCGUGGUGGUCCCGGUGGAAUGUUCAGAGGUGGCCGUGGUGGAGACAGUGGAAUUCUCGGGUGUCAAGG | 0.872
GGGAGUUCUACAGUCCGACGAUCUGGGAGGUGGAUUUUGUUUAUUUUUUUAGCUCAUUUCCAAGGGUGGGAAUUUUUUUUUAAUAUGUGUCAUGAAUAAAGUUGUUUUUGAAAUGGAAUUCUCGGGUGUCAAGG | 1.75
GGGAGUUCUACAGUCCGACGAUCAAGUCCUGUGCUACACAUCGUAUGUACCGAAUCGGAAAAAGGUUUUUGGAAAAAGGAAAGUAUUAUGUUACGCCGUUCGGAUCUGCACUUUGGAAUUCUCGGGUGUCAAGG | -0.239
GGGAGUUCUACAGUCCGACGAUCCCUGUGCUACACAUCGUAUGUACCGAAUCGGGGAAAAAGGGGUUUUUGGGGUUUUUGGGGAAAGUAUUAUGUUACGCCGUUCGGAUCUGCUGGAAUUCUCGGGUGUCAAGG | 0.955
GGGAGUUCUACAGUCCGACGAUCGCAGGAAGUAAAAACAAAUGGAAAUGCUUCGGAUAGUGGCAGGGGUGGGGGUUGCUAAGGAAAGGGUGGGAUGGGAGUGGGUGAAGAGUUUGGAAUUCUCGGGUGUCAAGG | 0.726
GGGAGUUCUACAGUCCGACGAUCCACAGACAACACGCACCCACACAGACACAGAGGGAAGGGAUUGGGAUGGGGACAGGGUGCACAGCAGGGCGGGGUAGGACCCCAGCCCCUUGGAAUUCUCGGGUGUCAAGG | -0.0458
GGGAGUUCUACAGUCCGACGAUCUAACUUUAGAGGAGGGUCUGAUGGAUAUGGCAGUGGACGUGGAUUUGGGGAUGGCUAUAAUGGGUAUGGAGGAGGACCUGGAGGUGGCAAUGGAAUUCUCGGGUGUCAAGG | -0.658
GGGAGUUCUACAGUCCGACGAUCCCUGUGCUACACAUCGUAUGUACCGAAUCGGAAAAAAAGGGAAAAAAAGGAAAAAAAGGGAAAGUAUUAUGUUACGCCGUUCGGAUCUGCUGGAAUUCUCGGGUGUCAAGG | 0.182
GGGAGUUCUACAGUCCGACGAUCUCCUGUGCUACACAUCGUAUGUACCGAAUCGGGGUUUUUGGGUUUUUGGGGUUUUUGGGGAAAGUAUUAUGUUACGCCGUUCGGAUCUGCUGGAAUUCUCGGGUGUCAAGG | 0.0992

Series 4
Target: Centromere-binding protein 1, full length, N-terminal tag (CBF1, Saccharomyces cerevisiae, UniProt P17106, residues 1-351)
UniProt P17106, sequence (whole entry, looked up): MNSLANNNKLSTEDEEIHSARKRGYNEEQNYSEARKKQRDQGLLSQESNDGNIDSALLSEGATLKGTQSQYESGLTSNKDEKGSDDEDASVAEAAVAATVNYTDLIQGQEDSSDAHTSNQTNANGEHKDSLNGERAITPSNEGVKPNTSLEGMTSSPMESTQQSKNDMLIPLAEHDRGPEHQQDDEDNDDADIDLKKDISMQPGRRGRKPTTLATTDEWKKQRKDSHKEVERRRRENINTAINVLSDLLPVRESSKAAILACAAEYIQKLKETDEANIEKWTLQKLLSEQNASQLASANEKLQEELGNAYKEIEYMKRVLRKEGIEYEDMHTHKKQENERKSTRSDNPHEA
Technique: protein-binding microarray
Form: double-stranded DNA, one strand shown
Medium: in vitro
Tested at: 0.8 µM
Setting: whole 60-bp probe, no competitor
Direction: higher = stronger binding
Strand | fluorescence intensity [a.u.]
CTAGCTGGTAATCGTGGTGACTCCAGAACCAAATTCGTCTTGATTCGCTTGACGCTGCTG | 520
TGTACGAAGCTATCGTGCGTTTTTATAGTAGTTAGGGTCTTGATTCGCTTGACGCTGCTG | 516
CTACTTTCCTCGCGTCACGGTGTCAGTAAAAAATTCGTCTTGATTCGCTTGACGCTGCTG | 996
GAATCTCTTCCGCCTCACGTAATATCAACAGGTTAGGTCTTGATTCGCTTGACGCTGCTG | 547
CCTAACTACTATAATCACGTCATATAGCTTCGTACAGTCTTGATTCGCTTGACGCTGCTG | 615
CCTAACTACTATACCATCACTACATAGCTTCGTACAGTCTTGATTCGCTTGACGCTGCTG | 502
CTACAAATATAAGATCACGCTATACTATCAATGTTCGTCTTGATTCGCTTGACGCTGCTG | 1160
GAATTACCGAATTGTAGCGTGGTGACAATGCCATAGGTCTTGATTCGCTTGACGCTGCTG | 533
GAATCTTGCAGACATCAGACATACTATTGTAATTAGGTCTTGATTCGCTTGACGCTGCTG | 522
GAATTAAATACTAACAACGTGCCAAATAACAGCTAGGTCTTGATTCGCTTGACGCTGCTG | 1050
CTATTTCGCCATAGCCATGTGCCTATATTAAATTTCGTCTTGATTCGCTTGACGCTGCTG | 775
TGTACGAAGCTATCAGACGTGAGTATAGTAGTTAGGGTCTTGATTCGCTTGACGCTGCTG | 541
GAATTTATTCCTTATCAGTTGATTTGGATGATATAGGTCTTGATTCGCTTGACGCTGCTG | 562
GAATTACTGTTGCATCATGTATAGGAGCTGCCCTAGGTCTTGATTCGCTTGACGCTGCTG | 545
CTAATCAGTTCGTTTCGCGTGATAACAAACAGTTTCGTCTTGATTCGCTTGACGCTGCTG | 705
CTAGTACGTAGTGATTGCGTGGATTAGTTTATCTTCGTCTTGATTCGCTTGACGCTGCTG | 502
CTATCCGTGCGAAGTGACCGCGTGGAAGGCCGGTTCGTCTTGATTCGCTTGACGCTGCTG | 558
CTATATTTATGATAGCATCAGATTCATTTCCCATTCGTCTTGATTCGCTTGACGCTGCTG | 490
CTATGTTAATTGTATGGCGTGTGGCCTTTCTATTTCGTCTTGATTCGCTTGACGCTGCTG | 545
CCTAACTACTATATTCACCTGTTATAGCTTCGTACAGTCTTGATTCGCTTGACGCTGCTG | 551
GAACGGTAAAATAATCACCTGAAAAAAACTAGGTAGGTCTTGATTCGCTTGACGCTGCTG | 709

Series 5
Target: Histone acetyltransferase KAT6A, both winged helices, GST fusion (KAT6A, Homo sapiens, UniProt Q92794, residues 1-181)
Technique: protein binding microarray
Form: double-stranded DNA, one strand shown
Medium: in vitro
Tested at: not given
Setting: 8-mer, flanks averaged, mean of 2 arrays, mostly near background
Relative to: not given
Direction: higher = stronger binding
Residues (chain): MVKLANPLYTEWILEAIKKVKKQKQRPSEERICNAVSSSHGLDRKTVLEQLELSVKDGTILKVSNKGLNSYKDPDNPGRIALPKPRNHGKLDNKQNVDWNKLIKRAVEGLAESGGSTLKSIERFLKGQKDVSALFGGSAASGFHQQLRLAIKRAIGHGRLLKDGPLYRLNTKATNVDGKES
Strand | E-score
ACTATCGC | 0.0056
ATCTCAGA | -0.12
GCCATAGA | -0.0464
GGAAGTTA | -0.0251
CTCTCCGC | 0.061
AACCTGTG | -0.234
CGACTGAA | 0.125
CAGGGTGG | -0.176
ATACGCTC | 0.109
CGCAAGCA | 0.133
GTAAAGAC | 0.0618
AAGGACCG | 0.00565
ATAGTTAA | 0.0753
TGACAGAA | -0.0581
AACCTTCC | -0.0138
AACCCGCG | 0.298
CGAACGAG | 0.0288
AGTCTCGG | 0.114

For quick reference, copied from above (series 4):
Strand | fluorescence intensity [a.u.]
GAATCTTGCAGACATCAGACATACTATTGTAATTAGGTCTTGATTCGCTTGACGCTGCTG | 522
GAATTAAATACTAACAACGTGCCAAATAACAGCTAGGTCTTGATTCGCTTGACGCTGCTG | 1050
CTATTTCGCCATAGCCATGTGCCTATATTAAATTTCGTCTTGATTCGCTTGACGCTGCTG | 775
TGTACGAAGCTATCAGACGTGAGTATAGTAGTTAGGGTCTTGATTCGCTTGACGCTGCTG | 541
